Measured values gathered from unrelated publications.
Every numbered part comes from another study and shows a few of its results, in no order. Changes are numbered by the printed parent chain.

Sample 1
Target: CCNE1, cyclin fold, Cln2 fusion (human)
Method: yeast growth competition, sequencing
Sample: yeast
Setting: strong parent motif
Reference: not given
Reading: higher = stronger binding
Starting sequence: BRCA2 docking peptide (human); PSIKRNLLNEFDR; partner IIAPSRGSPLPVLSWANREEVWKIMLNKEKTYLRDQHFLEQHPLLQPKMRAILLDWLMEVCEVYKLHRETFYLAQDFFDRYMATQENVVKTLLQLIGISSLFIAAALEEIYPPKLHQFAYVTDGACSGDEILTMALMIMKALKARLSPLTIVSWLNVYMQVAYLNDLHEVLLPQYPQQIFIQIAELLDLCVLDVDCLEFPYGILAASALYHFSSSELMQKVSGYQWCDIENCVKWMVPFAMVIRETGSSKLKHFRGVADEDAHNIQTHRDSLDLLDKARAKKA
| Substitution | normalised enrichment score |
| --- | --- |
| S2P | 1.18 |
| R13L | 1.68 |
| E10N | 0.831 |

Sample 2
Target: RNA binding protein fox-1 homolog 2, RRM domain, GST-SBP tag (RBFOX2, Homo sapiens, UniProt O43251-10, residues 100-194)
Method: RNA Bind-n-Seq
Molecule type: RNA
Sample: in vitro
Tested at: 365 nM
Setting: natural RNA segment, single round, ends assumed
Reference: no-protein control
Reading: higher = stronger binding
Constant ends, left off below: GGGAGUUCUACAGUCCGACGAUC … UGGAAUUCUCGGGUGCCAA
Construct (chain): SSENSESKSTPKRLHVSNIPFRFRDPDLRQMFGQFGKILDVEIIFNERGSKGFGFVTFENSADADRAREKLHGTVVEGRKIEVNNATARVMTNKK
| Strand | RBNS enrichment (R) |
| --- | --- |
| GAAUGUGCUCAUAGACCAUCAGACGCUUGUCGAAGGCAGGUCCUAGUCAUGUAAUUGCACAGGACAAGGAGGUCAGCGUGUGUGAUGGCAGCAUGCUGUGCCGGCACAUC | 14.6 |
| GGAAACGCGCAGAUGUCCAAAAGUCUAAAUAAAUGCAUUCAGAGGUUUUUGGGGUCCAUGGCCAAGUGGAGUUCCCCCAGAGGGGGAGGUGGGGUAAGUGCCUCCAGGAA | 6.46 |
| ACAGUAUGCCCUGCCUUCCCUGGGCCAAAAGAAAUCCGUGCUGUCACUGAUGCUGGCGAUGAUGCAGAGCUGUCGCUGCCCUCAGCUCCUGCUGGCUUGUUUAUCAGGGA | 0.269 |
| CCUGGGUGAUGCAUUUGCUCUUCCUGUUUGUGCCAAUGUAUCAAUGUAGAGUUGCUCUGUUUUCUUCAACUGUAUUUAUUGCUGCAUUUCUCAGCAUAAACUUAUCCCAU | 0.688 |
| AGAUUAAAGGCCUGUGAGUACUGCUGAGCUUGGUGUGGCUUGGUGUGGCAGAAGGCCUGGCCUAGGAUCCUAGAUAAGCAGGUGAAAUUUAGGCUUCAGAAUAUAUCCGA | 0.728 |

Single results of other studies
P1: PYL1, truncated, DHFR fusion (Arabidopsis thaliana); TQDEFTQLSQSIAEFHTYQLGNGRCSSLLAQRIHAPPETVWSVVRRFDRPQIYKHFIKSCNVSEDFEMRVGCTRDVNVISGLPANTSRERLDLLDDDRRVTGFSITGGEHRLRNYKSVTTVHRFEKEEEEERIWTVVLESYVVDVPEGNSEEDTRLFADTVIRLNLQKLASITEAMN; partner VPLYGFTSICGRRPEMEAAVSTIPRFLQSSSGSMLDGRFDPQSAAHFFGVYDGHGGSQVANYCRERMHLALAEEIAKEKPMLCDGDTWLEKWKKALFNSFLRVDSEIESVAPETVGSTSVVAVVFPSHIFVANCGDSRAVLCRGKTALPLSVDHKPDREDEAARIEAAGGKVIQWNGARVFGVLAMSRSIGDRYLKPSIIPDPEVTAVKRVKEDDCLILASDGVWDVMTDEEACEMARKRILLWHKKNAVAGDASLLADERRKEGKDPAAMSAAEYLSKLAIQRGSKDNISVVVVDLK
| Molecule | target | assay | test system | setting | how to read | measurement | value |
| --- | --- | --- | --- | --- | --- | --- | --- |
| PhoQ, residues 284 288 289 292 302 303 SCCLKL | PhoP, residues 12 14 15 18 19 VQGLL (Escherichia coli, UniProt P23836) | Sort-seq, item: YFP reporter | E. coli | PhoQ-PhoP variant library, with: 10 µM Mg2+ | reference: high Mg2+ state, higher = stronger signaling | fold induction | 3.74 |
| P1 F47P | ABI1, truncated, D143A, DHFR fusion (Arabidopsis thaliana) | DHFR PCA, deep sequencing | yeast | methotrexate growth selection, single substitutions, with: (+)-ABA 0.39 µM | reference: wild-type fitted maximum, higher = stronger binding | relative binding score | -0.163% |
